Published values pooled from the literature.
Every numbered part comes from another study and shows a few of its results, in no order.
Sequence of UniProt Q02763 (whole entry, looked up): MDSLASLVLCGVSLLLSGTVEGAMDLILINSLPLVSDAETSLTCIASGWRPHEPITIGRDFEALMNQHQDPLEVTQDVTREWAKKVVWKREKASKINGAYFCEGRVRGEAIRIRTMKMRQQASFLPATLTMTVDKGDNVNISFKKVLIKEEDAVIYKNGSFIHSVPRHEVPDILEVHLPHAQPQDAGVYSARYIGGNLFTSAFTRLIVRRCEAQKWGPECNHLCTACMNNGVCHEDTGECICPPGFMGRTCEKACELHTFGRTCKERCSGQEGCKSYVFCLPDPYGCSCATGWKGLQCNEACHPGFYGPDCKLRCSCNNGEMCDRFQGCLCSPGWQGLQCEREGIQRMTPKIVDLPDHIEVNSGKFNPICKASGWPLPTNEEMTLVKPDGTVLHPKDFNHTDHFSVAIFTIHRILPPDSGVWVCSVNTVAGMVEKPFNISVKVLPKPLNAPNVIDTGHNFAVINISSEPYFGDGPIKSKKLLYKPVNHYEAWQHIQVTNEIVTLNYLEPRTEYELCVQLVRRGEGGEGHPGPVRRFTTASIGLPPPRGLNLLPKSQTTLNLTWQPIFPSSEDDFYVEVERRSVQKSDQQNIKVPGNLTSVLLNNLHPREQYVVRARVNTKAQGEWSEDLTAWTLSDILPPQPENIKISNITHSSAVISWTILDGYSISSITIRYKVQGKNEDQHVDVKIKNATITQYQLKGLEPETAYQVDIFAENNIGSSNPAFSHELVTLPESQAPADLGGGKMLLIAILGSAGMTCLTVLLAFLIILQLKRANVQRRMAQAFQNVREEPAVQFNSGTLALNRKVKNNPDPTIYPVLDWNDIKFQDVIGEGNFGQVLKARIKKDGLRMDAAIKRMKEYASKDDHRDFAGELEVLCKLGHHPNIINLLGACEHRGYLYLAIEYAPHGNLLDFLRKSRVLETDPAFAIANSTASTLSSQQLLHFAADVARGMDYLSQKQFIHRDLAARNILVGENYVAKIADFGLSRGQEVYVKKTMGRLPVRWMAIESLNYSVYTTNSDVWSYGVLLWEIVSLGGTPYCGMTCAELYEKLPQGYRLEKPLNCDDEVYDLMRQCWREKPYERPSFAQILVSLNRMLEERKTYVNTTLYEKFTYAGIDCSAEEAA
Sequence of UniProt O94768 (whole entry, looked up): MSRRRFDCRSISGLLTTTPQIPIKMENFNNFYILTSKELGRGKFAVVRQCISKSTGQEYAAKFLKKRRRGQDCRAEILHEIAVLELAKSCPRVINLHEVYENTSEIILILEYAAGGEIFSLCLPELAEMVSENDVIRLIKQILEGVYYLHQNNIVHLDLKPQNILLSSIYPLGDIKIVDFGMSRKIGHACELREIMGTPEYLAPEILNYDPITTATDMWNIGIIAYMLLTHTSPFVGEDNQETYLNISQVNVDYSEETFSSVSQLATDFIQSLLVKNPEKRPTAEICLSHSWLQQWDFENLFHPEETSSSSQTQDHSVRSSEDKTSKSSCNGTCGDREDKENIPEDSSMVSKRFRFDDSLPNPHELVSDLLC
Sequence of UniProt O43683 (whole entry, looked up): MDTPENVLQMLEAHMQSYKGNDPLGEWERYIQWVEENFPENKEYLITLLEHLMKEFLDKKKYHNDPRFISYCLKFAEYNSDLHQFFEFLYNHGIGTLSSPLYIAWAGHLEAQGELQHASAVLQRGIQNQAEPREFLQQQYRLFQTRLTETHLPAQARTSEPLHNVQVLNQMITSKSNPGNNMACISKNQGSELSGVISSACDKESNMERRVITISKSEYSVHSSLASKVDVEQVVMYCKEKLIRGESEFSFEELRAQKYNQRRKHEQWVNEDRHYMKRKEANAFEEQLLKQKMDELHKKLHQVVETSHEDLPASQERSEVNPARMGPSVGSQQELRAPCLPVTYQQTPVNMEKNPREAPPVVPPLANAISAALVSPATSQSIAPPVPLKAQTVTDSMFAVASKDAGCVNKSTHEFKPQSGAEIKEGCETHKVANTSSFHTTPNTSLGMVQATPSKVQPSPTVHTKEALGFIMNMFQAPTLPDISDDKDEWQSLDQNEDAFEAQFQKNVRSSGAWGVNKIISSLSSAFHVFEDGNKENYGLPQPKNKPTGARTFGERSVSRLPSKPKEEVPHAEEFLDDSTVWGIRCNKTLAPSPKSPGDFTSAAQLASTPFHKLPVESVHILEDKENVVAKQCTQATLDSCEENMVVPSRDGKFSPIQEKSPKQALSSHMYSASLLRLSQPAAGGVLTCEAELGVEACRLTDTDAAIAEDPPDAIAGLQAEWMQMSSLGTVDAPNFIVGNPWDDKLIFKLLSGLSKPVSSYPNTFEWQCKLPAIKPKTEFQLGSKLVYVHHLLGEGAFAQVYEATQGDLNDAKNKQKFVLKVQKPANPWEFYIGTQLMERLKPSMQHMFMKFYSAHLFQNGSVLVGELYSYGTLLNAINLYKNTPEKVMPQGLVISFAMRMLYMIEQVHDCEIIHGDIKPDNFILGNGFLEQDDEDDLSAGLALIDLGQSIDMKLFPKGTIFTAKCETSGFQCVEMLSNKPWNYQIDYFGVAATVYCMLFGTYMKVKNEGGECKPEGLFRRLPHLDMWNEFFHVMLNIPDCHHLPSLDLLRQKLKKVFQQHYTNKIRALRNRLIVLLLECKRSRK
Sequence of UniProt P42680 (whole entry, looked up): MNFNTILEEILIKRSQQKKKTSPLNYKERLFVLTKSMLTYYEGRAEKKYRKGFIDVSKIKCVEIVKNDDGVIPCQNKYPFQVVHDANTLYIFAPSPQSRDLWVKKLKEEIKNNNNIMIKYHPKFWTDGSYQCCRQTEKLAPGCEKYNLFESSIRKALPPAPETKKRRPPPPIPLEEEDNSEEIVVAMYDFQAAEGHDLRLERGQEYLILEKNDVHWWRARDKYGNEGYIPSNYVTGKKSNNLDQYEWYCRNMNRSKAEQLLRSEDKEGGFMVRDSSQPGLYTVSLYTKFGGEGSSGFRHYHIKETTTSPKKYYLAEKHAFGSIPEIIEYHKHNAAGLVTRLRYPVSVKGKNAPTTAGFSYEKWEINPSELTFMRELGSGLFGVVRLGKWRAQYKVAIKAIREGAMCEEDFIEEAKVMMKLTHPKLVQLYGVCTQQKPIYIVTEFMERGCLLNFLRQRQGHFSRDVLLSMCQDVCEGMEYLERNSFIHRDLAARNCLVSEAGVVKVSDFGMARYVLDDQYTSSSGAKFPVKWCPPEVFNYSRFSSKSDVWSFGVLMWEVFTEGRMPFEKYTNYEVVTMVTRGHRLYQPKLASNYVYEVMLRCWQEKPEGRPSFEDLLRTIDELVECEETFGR
Sequence of UniProt Q9H4B4 (whole entry, looked up): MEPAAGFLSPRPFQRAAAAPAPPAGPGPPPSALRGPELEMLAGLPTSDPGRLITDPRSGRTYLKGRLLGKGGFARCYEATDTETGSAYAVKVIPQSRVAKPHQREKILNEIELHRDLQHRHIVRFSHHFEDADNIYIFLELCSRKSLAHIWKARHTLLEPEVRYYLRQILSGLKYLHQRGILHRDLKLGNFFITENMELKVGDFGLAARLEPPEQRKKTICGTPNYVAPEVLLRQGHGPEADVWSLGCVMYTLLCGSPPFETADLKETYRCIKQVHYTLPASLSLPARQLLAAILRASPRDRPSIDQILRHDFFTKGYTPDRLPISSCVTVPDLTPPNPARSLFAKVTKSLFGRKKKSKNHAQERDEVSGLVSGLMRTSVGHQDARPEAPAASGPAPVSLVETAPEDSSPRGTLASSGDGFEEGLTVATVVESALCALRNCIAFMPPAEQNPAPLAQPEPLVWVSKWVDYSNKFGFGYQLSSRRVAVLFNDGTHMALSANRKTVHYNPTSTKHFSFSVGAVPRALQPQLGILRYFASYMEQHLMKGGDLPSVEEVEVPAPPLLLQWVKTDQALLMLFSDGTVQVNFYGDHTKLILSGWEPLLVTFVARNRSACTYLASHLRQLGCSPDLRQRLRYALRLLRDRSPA

Series 1 — method: competition with immobilised ligand; tested at: 1 µM
Compound: Cn1nc(C(F)(F)F)cc1-c1cnc(N2CCc3cc(S(=O)(=O)Nc4c(F)cc(Cl)cc4F)cc(N4CCCC4=O)c32)nc1
| target | effect on | remaining binding [%] |
| --- | --- | --- |
| TEC (Homo sapiens, UniProt P42680) | binding | 79 |
| MAP3K7 (Homo sapiens, UniProt O43318) | cell-free assay | 79 |
| PIK3CA (Homo sapiens, UniProt P42336, E545A) | cell-free assay | 84 |
| PLK3 (Homo sapiens, UniProt Q9H4B4) | cell-free assay | 79 |
| CDK9 (Homo sapiens, UniProt P50750) | cell-free assay | 100 |
| ALK (Homo sapiens, UniProt Q9UM73) | cell-free assay | 80 |
| TEK (Homo sapiens, UniProt Q02763) | cell-free assay | 99 |
| CDKL3 (Homo sapiens, UniProt Q8IVW4) | binding | 100 |
| STK17B (Homo sapiens, UniProt O94768) | cell-free assay | 100 |
| FLT4 (Homo sapiens, UniProt P35916) | cell-free assay | 96 |
| PIK3CB (Homo sapiens, UniProt P42338) | cell-free assay | 85 |
| STK24 (Homo sapiens, UniProt Q9Y6E0) | cell-free assay | 90 |
| BUB1 (Homo sapiens, UniProt O43683) | cell-free assay | 87 |
| CHEK1 (Homo sapiens, UniProt O14757) | cell-free assay | 100 |
| Tyrosine-protein kinase ABL1, non-phosphorylated (ABL1, Homo sapiens, UniProt P00519, T315I) | cell-free assay | 74 |

Series 2 — effect on: enzyme activity; action: inhibitor; tested at: 0.5 µM; baseline: control
Target: Serine/threonine-protein kinase PLK1 (PLK1, Homo sapiens, UniProt P53350)
Sequence of UniProt P53350 (whole entry, looked up): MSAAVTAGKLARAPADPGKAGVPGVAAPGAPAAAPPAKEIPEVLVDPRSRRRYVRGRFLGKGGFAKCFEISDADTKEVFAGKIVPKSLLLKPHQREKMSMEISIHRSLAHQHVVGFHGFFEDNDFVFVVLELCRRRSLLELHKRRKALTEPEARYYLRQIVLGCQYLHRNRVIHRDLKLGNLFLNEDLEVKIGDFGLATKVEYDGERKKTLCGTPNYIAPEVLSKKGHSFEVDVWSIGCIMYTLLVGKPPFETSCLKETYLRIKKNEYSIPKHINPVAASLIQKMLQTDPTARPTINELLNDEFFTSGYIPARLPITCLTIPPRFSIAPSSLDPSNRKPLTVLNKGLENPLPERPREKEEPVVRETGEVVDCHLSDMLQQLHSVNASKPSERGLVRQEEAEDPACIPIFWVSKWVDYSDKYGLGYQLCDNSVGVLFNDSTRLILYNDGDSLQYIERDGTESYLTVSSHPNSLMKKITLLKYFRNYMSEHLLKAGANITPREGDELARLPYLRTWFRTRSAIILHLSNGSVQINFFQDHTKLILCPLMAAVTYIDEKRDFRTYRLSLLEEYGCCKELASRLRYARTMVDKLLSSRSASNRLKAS
| SMILES | remaining activity [%] |
| --- | --- |
| Nc1nc(Nc2ccc(S(N)(=O)=O)cc2)nn1C(=S)Nc1c(F)cccc1F | 92.1 |
| NC(=O)c1cccc(-c2cc(Nc3ccc(OC(F)(F)F)cc3)ncn2)c1 | 97.7 |
| O=C1NC(=O)/C(=C/c2ccc3c(c2)OC(F)(F)O3)S1 | 92.9 |
| O=C(c1ccccc1)c1ccc(N2CCOCC2)cc1O | 104 |
| CC(C)N(CCC(=O)c1ccc2ccccc2c1)Cc1ccccc1 | 97.8 |
| O=C1c2ccccc2-c2nc3nnnn3nc21 | 28.6 |
| N#CC(c1ccnc(NCCc2cccnc2)n1)c1nc2ccccc2s1 (stereo not shown) | 91.4 |
| CCCCc1c(-c2ccc(O)cc2)[nH]c2nccnc12 | 96.6 |
| O=Nc1c(-c2c(O)[nH]c3ccccc23)[nH]c2ccccc12 | 100 |
| CC(C)n1cnc2c(Nc3cccc(Cl)c3)nc(NCCO)nc21 | 44.1 |
| Clc1ccc(Nc2nnc(Cc3ccncc3)c3ccccc23)cc1 | 95.9 |
| COc1cc2c(N3CCN(C(=O)Nc4ccc(OC(C)C)cc4)CC3)ncnc2cc1OCCCN1CCCCC1 | 101 |
| CCN(CC)CCCCN1c2ccccc2Oc2ccc(Cl)cc21 | 109 |
| NC(=O)c1ccc(-c2nc(-c3ccc4c(c3)OCCO4)c(-c3ccccn3)[nH]2)cc1 | 95.6 |
| FC(F)(F)c1ccc(/C=C/c2nc(COc3ccc(CCCCn4ccnn4)cc3)co2)cc1 | 98.3 |
| O=C(O)/C=C/c1cc(Br)c(Br)c(Br)c1Br | 68.7 |
| c1cc(-c2cnn3cc(-c4ccc(OCCN5CCCCC5)cc4)cnc23)ccn1 | 107 |
| C[C@@H](N)[C@H]1CC[C@H](C(=O)Nc2ccncc2)CC1 | 93.9 |
| CC(C)(C)c1nc2c3cc[nH]c(=O)c3c3cc(F)ccc3c2[nH]1 | 10.5 |
| O=c1c(-c2ccc(F)cc2)c(-c2ccncc2)[nH]n1-c1ccc(Cl)cc1 | 98.3 |
| CNc1cc2c(Nc3cccc(Br)c3)ncnc2cn1 | 93.5 |
| COc1cc2c(Nc3ccc(Br)cc3F)ncnc2cc1OCC1CCN(C)CC1 | 98.5 |

Series 3 — method: phase 2a trial; species: idiopathic pulmonary fibrosis patients
Compound: CC(C)n1cnc(-c2ccc(F)cc2)c1-c1ncc(C(=O)Nc2ccc(N3CCN(C)CC3)cc2)[nH]1
| refers to | dose | setting | adverse event incidence [%] |
| --- | --- | --- | --- |
| chronic gastritis | 30 mg once daily | grade 5 | 0 |
| general and administration site disorders | 60 mg once daily | grade 4 | 0 |
| infection | 30 mg once daily | grade 5 | 0 |
| gingivitis | dose not given | grade 5, all arms pooled | 0 |
| gingivitis | 60 mg once daily | grade 5 | 0 |
| arthritis | 30 mg once daily | grade 1 | 0 |
| hydroxybutyrate dehydrogenase increased | 30 mg once daily | grade 5 | 0 |
| liver injury | 60 mg once daily | grade 5 | 0 |
| infection | 60 mg once daily | grade 2 | 0 |
| weight decreased | 60 mg once daily | grade 4 | 0 |
| hepatic enzyme abnormal | 60 mg once daily | grade 4 | 0 |
| ECG ST segment abnormal | 60 mg once daily | grade 2 | 0 |
| ECG ST segment abnormal | 30 mg once daily | grade 4 | 0 |
| general and administration site disorders | 30 mg once daily | grade 3 | 0 |
| synovitis | 60 mg once daily | grade 4 | 0 |

Series 4 — effect on: enzyme activity; action: inhibitor; tested at: 10 µM
Target: Calcium/calmodulin-dependent protein kinase type II subunit alpha (CAMK2A, Homo sapiens, UniProt Q9UQM7)
Sequence of UniProt Q9UQM7 (whole entry, looked up): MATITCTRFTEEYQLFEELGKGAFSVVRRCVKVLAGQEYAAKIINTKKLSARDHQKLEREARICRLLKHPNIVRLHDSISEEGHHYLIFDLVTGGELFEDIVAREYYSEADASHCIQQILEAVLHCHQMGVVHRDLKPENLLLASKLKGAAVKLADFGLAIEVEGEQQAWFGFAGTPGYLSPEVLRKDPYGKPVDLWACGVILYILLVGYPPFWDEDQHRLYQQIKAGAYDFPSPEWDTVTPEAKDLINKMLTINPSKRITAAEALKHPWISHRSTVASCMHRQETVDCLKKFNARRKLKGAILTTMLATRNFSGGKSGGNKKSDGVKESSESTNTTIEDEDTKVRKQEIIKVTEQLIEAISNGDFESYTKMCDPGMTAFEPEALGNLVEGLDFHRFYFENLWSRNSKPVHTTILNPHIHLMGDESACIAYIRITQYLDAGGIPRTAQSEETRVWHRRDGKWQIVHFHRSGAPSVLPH
| SMILES | inhibition |
| --- | --- |
| O=C1CCc2ccc(OCCCCN3CCN(c4cccc(Cl)c4Cl)CC3)cc2N1 | -4% |
| C=C1C(=O)O[C@H]2C[C@@H](C)[C@@H]3CCC(=O)[C@@]3(C)[C@@H](OC(C)=O)[C@H]12 | -3% |
| Nc1ncnc2c1ncn2[C@@H]1O[C@H](CO)[C@@H](O)[C@H]1O | -7% |
| COc1cc(O)c2c(c1)oc(=O)c1c3cc(O)c(O)cc3oc21 | 19% |
| Cc1ccccc1OCC(O)CO (stereo not shown) | -10% |
| N#C/C(=C1/SC[C@@H](c2ccc(Cl)cc2Cl)S1)n1ccnc1 | 2% |

Repeated from above (series 3):
| refers to | dose | setting | adverse event incidence [%] |
| --- | --- | --- | --- |
| liver injury | 60 mg once daily | grade 5 | 0 |
| gingivitis | 60 mg once daily | grade 5 | 0 |
| gingivitis | dose not given | grade 5, all arms pooled | 0 |
| chronic gastritis | 30 mg once daily | grade 5 | 0 |
| hepatic enzyme abnormal | 60 mg once daily | grade 4 | 0 |
| infection | 60 mg once daily | grade 2 | 0 |
| infection | 30 mg once daily | grade 5 | 0 |
| general and administration site disorders | 60 mg once daily | grade 4 | 0 |
| ECG ST segment abnormal | 60 mg once daily | grade 2 | 0 |
